Measured values collected from several papers.
Numbered parts are unrelated; each lists some results of a single study.
UniProt Q02156, sequence (whole entry, looked up): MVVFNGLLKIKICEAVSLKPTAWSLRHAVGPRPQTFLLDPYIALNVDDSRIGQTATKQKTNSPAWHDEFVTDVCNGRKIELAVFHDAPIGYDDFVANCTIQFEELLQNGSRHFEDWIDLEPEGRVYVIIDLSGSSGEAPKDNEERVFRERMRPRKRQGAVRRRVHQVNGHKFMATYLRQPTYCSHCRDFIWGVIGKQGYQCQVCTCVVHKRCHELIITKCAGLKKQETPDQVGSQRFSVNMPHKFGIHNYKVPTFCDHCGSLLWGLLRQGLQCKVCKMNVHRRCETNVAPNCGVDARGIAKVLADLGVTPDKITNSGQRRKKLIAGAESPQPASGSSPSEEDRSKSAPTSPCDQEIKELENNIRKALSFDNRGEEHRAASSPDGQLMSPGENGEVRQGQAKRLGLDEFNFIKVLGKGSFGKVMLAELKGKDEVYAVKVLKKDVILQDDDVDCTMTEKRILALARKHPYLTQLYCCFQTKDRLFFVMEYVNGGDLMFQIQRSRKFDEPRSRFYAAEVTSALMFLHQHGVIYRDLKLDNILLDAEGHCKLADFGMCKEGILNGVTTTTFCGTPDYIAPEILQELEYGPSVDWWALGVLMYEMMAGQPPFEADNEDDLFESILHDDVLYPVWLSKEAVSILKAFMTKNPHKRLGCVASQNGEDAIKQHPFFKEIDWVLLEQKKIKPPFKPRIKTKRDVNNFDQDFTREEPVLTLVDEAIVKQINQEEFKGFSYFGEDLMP
UniProt O14920, sequence (whole entry, looked up): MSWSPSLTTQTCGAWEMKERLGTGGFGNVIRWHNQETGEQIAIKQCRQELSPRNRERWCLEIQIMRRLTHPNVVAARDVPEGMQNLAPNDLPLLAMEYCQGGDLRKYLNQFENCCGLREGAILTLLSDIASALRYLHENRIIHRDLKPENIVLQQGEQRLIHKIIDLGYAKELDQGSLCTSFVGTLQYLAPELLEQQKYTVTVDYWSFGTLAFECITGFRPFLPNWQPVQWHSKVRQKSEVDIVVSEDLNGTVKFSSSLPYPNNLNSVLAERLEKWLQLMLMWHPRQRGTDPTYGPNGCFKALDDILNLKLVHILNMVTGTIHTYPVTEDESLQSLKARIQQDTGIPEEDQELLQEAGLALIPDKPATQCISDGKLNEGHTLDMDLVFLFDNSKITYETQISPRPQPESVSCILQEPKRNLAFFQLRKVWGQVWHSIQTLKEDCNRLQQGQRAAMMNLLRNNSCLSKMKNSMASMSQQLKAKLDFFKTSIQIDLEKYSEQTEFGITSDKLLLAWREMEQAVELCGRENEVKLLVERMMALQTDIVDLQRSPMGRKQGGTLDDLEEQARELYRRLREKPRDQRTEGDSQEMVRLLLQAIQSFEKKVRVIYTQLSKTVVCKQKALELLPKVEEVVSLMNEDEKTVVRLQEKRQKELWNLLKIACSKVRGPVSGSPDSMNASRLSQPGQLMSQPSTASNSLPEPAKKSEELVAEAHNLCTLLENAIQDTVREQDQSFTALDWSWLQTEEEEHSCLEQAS
UniProt Q6DT37, sequence (whole entry, looked up): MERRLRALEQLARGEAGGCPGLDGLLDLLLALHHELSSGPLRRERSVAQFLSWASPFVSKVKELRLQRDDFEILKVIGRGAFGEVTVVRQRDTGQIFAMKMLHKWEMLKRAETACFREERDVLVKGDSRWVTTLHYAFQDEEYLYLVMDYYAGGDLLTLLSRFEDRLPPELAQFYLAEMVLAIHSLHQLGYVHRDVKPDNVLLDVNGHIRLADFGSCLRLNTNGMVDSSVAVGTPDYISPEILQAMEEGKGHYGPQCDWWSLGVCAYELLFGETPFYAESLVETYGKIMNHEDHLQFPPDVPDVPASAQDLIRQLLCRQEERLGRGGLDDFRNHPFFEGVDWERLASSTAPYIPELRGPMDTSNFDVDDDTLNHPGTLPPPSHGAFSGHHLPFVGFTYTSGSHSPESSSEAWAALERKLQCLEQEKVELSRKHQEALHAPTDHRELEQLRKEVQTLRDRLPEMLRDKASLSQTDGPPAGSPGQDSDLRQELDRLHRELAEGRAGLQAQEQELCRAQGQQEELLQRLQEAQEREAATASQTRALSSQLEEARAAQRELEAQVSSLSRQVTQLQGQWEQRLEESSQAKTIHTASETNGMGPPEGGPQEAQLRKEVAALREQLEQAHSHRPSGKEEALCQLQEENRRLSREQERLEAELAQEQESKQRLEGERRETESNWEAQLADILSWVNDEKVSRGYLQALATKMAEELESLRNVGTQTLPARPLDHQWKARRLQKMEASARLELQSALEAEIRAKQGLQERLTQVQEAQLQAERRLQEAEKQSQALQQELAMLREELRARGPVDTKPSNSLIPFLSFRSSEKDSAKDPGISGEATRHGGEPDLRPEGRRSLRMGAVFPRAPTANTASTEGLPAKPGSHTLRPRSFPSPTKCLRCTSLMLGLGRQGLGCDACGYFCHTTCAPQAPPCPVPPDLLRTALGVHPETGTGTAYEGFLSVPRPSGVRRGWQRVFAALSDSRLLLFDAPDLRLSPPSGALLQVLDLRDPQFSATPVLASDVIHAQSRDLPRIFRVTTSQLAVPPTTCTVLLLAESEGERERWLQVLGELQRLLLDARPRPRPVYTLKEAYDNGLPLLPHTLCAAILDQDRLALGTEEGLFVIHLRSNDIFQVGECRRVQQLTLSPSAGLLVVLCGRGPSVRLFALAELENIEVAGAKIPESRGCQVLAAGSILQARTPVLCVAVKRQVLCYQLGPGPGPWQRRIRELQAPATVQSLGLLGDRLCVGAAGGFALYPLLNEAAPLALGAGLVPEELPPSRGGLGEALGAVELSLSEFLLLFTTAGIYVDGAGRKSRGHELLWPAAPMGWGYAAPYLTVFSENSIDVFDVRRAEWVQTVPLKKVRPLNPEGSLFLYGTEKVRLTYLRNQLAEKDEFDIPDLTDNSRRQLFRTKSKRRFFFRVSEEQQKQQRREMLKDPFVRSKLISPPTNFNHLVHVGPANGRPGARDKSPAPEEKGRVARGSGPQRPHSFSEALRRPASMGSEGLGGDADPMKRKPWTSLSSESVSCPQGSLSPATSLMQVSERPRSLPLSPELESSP
UniProt Q8WU08, sequence (whole entry, looked up): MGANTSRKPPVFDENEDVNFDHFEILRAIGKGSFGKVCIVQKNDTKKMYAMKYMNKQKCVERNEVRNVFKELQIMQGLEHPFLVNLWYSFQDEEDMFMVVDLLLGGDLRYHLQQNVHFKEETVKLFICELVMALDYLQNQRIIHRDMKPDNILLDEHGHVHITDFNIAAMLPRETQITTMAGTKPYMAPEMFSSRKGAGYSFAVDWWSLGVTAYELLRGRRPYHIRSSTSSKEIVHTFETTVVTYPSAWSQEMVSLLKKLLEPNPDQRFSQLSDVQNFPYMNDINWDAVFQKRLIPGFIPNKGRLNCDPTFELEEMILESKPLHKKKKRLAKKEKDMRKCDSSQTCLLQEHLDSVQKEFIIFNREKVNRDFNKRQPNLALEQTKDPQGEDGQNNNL
UniProt O15075, sequence (whole entry, looked up): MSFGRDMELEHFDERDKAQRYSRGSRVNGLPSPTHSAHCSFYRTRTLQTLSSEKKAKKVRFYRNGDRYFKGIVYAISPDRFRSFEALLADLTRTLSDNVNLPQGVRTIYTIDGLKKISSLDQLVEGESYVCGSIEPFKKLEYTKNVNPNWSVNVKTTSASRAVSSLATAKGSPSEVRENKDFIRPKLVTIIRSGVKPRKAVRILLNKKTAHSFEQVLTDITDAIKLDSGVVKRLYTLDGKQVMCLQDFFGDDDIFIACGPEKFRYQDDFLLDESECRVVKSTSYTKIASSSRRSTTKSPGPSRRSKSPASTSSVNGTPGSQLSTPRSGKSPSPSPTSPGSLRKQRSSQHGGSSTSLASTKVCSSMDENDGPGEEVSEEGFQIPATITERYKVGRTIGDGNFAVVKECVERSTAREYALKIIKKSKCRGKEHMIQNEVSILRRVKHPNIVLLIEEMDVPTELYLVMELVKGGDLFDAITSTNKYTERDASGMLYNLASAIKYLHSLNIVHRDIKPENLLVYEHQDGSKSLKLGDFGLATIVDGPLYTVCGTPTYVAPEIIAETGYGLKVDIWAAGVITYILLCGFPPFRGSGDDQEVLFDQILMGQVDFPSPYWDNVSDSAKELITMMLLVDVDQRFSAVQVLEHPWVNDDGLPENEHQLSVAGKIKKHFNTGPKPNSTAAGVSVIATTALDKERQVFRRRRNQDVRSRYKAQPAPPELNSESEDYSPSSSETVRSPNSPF
UniProt Q96NX5, sequence (whole entry, looked up): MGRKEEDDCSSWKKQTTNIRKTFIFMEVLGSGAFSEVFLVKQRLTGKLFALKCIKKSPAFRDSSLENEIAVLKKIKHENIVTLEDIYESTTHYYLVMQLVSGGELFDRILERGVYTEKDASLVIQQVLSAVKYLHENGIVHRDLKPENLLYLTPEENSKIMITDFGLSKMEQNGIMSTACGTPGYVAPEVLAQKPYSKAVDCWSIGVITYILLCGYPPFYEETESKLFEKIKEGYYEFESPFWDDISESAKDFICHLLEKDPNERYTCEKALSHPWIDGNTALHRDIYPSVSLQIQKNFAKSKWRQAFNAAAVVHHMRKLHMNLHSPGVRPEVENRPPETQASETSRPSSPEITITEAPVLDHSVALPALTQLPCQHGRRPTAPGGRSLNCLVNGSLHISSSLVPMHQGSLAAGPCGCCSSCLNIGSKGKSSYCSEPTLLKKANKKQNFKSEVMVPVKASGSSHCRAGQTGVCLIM
UniProt Q8TBX8, sequence (whole entry, looked up): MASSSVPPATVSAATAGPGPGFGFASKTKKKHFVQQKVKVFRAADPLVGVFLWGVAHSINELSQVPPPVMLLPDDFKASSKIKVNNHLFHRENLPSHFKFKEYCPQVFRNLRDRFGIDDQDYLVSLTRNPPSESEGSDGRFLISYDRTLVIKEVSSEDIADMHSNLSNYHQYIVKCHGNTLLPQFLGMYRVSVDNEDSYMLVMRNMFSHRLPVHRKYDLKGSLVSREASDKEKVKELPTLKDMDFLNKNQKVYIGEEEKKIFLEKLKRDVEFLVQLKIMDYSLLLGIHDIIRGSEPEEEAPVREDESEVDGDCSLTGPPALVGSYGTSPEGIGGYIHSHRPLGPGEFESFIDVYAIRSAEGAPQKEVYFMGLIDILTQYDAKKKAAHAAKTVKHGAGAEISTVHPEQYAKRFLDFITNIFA

Block 1 — species: human; sample: microsomes or S9; concentration: 2 µM; time: 0.5 h
Structure (SMILES)	remaining compound
CC(C)C[C@H](C(=O)NOC(C)(C)C)N1C(=O)Nc2cc(Cl)cc(Cl)c2S1(=O)=O	45.8%
Cc1nn(-c2ccc(Cl)cc2)c2[nH]c(=O)c(CNCC3CCCO3)cc12 (centres unmarked)	90.4%
Cc1n[nH]c(CN2CCOc3cc(F)c(Br)cc32)n1	74.8%
O=c1[nH]nc(CNS(=O)(=O)c2cc(Cl)sc2Cl)[nH]1	78.2%
CCCC1(Cn2ccnc2-c2nccn2C)CCC1	0.145%
Cn1nccc1C1CN(Cc2noc3c2CC(C)(C)CC3)CCO1 (centres unmarked)	13.3%

Block 2 — concentration: 1 µM
SMILES: CS(=O)(=O)NCC[C@H](NC(=O)c1cncc2c1cnn2-c1ccc(F)cc1)c1ccnc(S(C)(=O)=O)c1
target	observed	technique	remaining binding
Serine/threonine-protein kinase 32B (STK32B, Homo sapiens, UniProt Q9NY57)	cell-free assay	competition with immobilised ligand	67%
Calcium/calmodulin-dependent protein kinase type 1G (CAMK1G, Homo sapiens, UniProt Q96NX5)	cell-free assay	competition with immobilised ligand	100%
Mast/stem cell growth factor receptor Kit, autoinhibited (KIT, Homo sapiens, UniProt P10721)	cell-free assay	competition with immobilised ligand	100%
Dual specificity testis-specific protein kinase 1 (TESK1, Homo sapiens, UniProt Q15569)	cell-free assay	competition with immobilised ligand	100%
Protein kinase C epsilon type (PRKCE, Homo sapiens, UniProt Q02156)	cell-free assay	competition with immobilised ligand	100%
Calcium/calmodulin-dependent protein kinase type 1D (CAMK1D, Homo sapiens, UniProt Q8IU85)	cell-free assay	competition with immobilised ligand	98%
Serine/threonine-protein kinase MRCK gamma (CDC42BPG, Homo sapiens, UniProt Q6DT37)		competition binding	100%
Serine/threonine-protein kinase RIO1 (RIOK1, Homo sapiens, UniProt Q9BRS2)	cell-free assay	competition with immobilised ligand	85%
Atypical kinase COQ8A, mitochondrial (COQ8A, Homo sapiens, UniProt Q8NI60)	cell-free assay	competition with immobilised ligand	95%
Cyclin-dependent kinase 18 (CDK18, Homo sapiens, UniProt Q07002)	cell-free assay	competition with immobilised ligand	100%
Serine/threonine-protein kinase DCLK1 (DCLK1, Homo sapiens, UniProt O15075)	cell-free assay	competition with immobilised ligand	94%
Tyrosine-protein kinase ABL1, non-phosphorylated (ABL1, Homo sapiens, UniProt P00519, F317I)	binding	competition with immobilised ligand	85%
Inhibitor of nuclear factor kappa-B kinase subunit beta (IKBKB, Homo sapiens, UniProt O14920)	cell-free assay	competition with immobilised ligand	89%
Serine/threonine-protein kinase WNK1 (WNK1, Homo sapiens, UniProt Q9H4A3)	cell-free assay	competition with immobilised ligand	100%
Serine/threonine-protein kinase PLK4 (PLK4, Homo sapiens, UniProt O00444)	cell-free assay	competition with immobilised ligand	89%
Serine/threonine-protein kinase 32A (STK32A, Homo sapiens, UniProt Q8WU08)	binding	competition with immobilised ligand	74%
Phosphatidylinositol 5-phosphate 4-kinase type-2 gamma (PIP4K2C, Homo sapiens, UniProt Q8TBX8)	cell-free assay	competition with immobilised ligand	0%

Block 3 — organism: Sarcocystis neurona; observed: parasite growth; concentration: 10 µM
Compound	inhibition [%]
Nc1nc(N)c2nc(-c3ccccc3)c(N)nc2n1	-67.2
CC(=O)SCC(Cc1ccccc1)C(=O)NCC(=O)OCc1ccccc1 (centres unmarked)	-33.6
CC1(C)O[C@@H]2C[C@H]3[C@@H]4CCC5=CC(=O)C=C[C@]5(C)[C@@]4(F)[C@@H](O)C[C@]3(C)[C@]2(C(=O)CO)O1	-28.7
N#Cc1ccc(C(c2ccc(C#N)cc2)n2cncn2)cc1	-27.7
NS(=O)(=O)c1cc(C(=O)O)c(NCc2ccco2)cc1Cl	-23.6
CC(=O)O[C@@]12CO[C@@H]1C[C@H](O)[C@@]1(C)C(=O)[C@H](O)C3=C(C)[C@@H](OC(=O)[C@H](O)[C@@H](NC(=O)OC(C)(C)C)c4ccccc4)C[C@@](O)([C@@H](OC(=O)c4ccccc4)[C@H]21)C3(C)C	52.4
C=CC[C@@H]1/C=C(\C)C[C@H](C)C[C@H](OC)[C@H]2O[C@@](O)(C(=O)C(=O)N3CCCC[C@H]3C(=O)O[C@H](/C(C)=C/[C@@H]3CC[C@@H](O)[C@H](OC)C3)[C@H](C)[C@@H](O)CC1=O)[C@H](C)C[C@@H]2OC	25.5

Block 4 — observed: enzyme activity; action: inhibitor; concentration: 0.5 µM; baseline: control
Target: Dual specificity tyrosine-phosphorylation-regulated kinase 1A (DYRK1A, Homo sapiens, UniProt Q13627)
Structure (SMILES)	remaining activity [%]
COc1cc2ncnc(Nc3ccc(O)c(Br)c3)c2cc1OC	97.8
C[C@@H]1CCN(C(=O)CC#N)C[C@@H]1N(C)c1ncnc2[nH]ccc12	102
COc1cc2c(cc1OC)-c1[nH]nc(Nc3cccc(F)c3)c1C2	90.3
Cn1nc2c3c(cccc31)C(=O)c1ccccc1-2	94.1
COc1cc2ncnc(Nc3cccc(Cl)c3)c2cc1OC	90.7
O=C(NC(NC(=S)Nc1ccc(F)c([N+](=O)[O-])c1)C(Cl)(Cl)Cl)C(c1ccccc1)c1ccccc1 (centres unmarked)	99.8
Cc1nc2cc3nc(-c4cccs4)cnc3cc2n1C	99.9
Nc1cccc(-c2cc3c(Oc4cccc(O)c4)ncnc3[nH]2)c1	103
O=C1c2ccccc2-c2n[nH]c3cccc1c23	71.6
CN(C)C[C@H]1CCn2c(c(C3=C(c4cn(C)c5ccccc45)C(=O)NC3=O)c3ccccc32)C1	88.7
N#Cc1c(NC(=O)c2cccc3ccccc23)sc2c1CCCC2	96.7

Repeated from above (block 3):
Compound	inhibition [%]
Nc1nc(N)c2nc(-c3ccccc3)c(N)nc2n1	-67.2
CC(=O)SCC(Cc1ccccc1)C(=O)NCC(=O)OCc1ccccc1 (centres unmarked)	-33.6
CC1(C)O[C@@H]2C[C@H]3[C@@H]4CCC5=CC(=O)C=C[C@]5(C)[C@@]4(F)[C@@H](O)C[C@]3(C)[C@]2(C(=O)CO)O1	-28.7
N#Cc1ccc(C(c2ccc(C#N)cc2)n2cncn2)cc1	-27.7
NS(=O)(=O)c1cc(C(=O)O)c(NCc2ccco2)cc1Cl	-23.6
CC(=O)O[C@@]12CO[C@@H]1C[C@H](O)[C@@]1(C)C(=O)[C@H](O)C3=C(C)[C@@H](OC(=O)[C@H](O)[C@@H](NC(=O)OC(C)(C)C)c4ccccc4)C[C@@](O)([C@@H](OC(=O)c4ccccc4)[C@H]21)C3(C)C	52.4
